{"data": "Published values from different studies", "note": "Lines come from different studies, so protocols differ. Several values in a cell are separate wells, animals, samples, runs or records. Numbers after ± are the reported error."}
{"SMILES": "CC(C)CC(=O)OC[C@H]1O[C@@](C#N)(c2ccc3c(N)ncnn23)[C@H](O)[C@@H]1O", "system": "Dogs plasma", "setting": "5 µM, 15 min", "endpoint": "remaining compound", "result": "96.7 ± 1.11%"}
{"SMILES": "C[C@H]1C[C@@H](N2C(=N)N[C@](C)(c3cccc(NC(=O)c4cccc(C#N)c4)c3Cl)CC2=O)CCO1", "system": "rat", "setting": "1000 mg/kg, every other day", "endpoint": "ALAT change", "result": "53%"}
{"SMILES": "CC(=O)c1c(C)c2cnc(Nc3ccc(C4CCN(CCS(C)(=O)=O)CC4)cn3)nc2n(C2CCCC2)c1=O", "system": "human, dose-escalation trial, plasma", "setting": "oral, 150 mg twice daily, day 1, single dose", "endpoint": "AUC(0-inf)", "result": "3.8 µg·h/mL"}
{"SMILES": "CN1CC[C@@H](c2c(O)cc(O)c3c(=O)cc(-c4ccc(C(F)(F)F)cc4Cl)oc23)[C@@H]1CO", "test": "measured: Pneumonia", "system": "relapsed AML", "setting": "oral, 100 mg, grade 3-4, intermittent dosing", "endpoint": "patients with adverse event", "result": "33.3%"}
{"SMILES": "NCCCC[C@@H]1NC(=O)[C@@H](Cc2c[nH]c3ccccc23)NC(=O)[C@H](c2ccccc2)NC(=O)[C@@H]2C[C@@H](OC(=O)NCCN)CN2C(=O)[C@H](Cc2ccccc2)NC(=O)[C@H](Cc2ccc(OCc3ccccc3)cc2)NC1=O", "system": "healthy volunteers", "setting": "subcutaneous, 600 µg twice daily, day 5, 4.00 h", "endpoint": "QTcI change from baseline", "result": "6.1 ms"}
{"SMILES": "COc1ncccc1-c1cnn2ccc(N3CCN(C(=O)OC(C)C)CC3)nc12", "system": "mouse nerve ligation model, brain", "setting": "oral, 30 mg/kg, 120 min after last dose, repeat dosing day 4", "endpoint": "drug concentration", "result": "19 µM"}
{"SMILES": "C[C@@H]1NC(=O)[C@H](CCCCNC(=O)CO/N=C/C(=O)NCCCC[C@@H]2NC(=O)[C@@H](Cc3ccccc3)NC(=O)[C@H](CC(=O)O)NC(=O)CNC(=O)[C@H](CCCNC(=N)N)NC2=O)NC(=O)CNC(=O)[C@@H]2CCCN2C(=O)[C@H](CCCCNC(=O)CO/N=C/C(=O)NCCCC[C@@H]2NC(=O)[C@@H](Cc3ccccc3)NC(=O)[C@H](CC(=O)O)NC(=O)CNC(=O)[C@H](CCCNC(=N)N)NC2=O)NC(=O)[C@H](CCCCNC(=O)CN2CCCNCCNCCCNCC2)NC(=O)[C@H](CCCCNC(=O)CO/N=C/C(=O)NCCCC[C@@H]2NC(=O)[C@@H](Cc3ccccc3)NC(=O)[C@H](CC(=O)O)NC(=O)CNC(=O)[C@H](CCCNC(=N)N)NC2=O)NC(=O)CNC(=O)[C@@H]2CCCN2C(=O)[C@H](CCCCNC(=O)CO/N=C/C(=O)NCCCC[C@@H]2NC(=O)[C@@H](Cc3ccccc3)NC(=O)[C@H](CC(=O)O)NC(=O)CNC(=O)[C@H](CCCNC(=N)N)NC2=O)NC1=O [copper-64 labelled]", "test": "biodistribution after PET", "system": "mouse, U-87 MG tumour xenograft, blood", "setting": "intravenous, 24 h", "endpoint": "tissue uptake", "result": "0.03 %ID/g"}
{"SMILES": "Cc1cccc(Cn2nc(C3CC3)c3c(NC(=O)c4cnc5cc(OCCN6CCN(C)CC6)ccn45)cccc32)n1", "test": "measured: AST increased", "system": "human advanced solid tumours", "setting": "oral, 400 mg, all-causality", "endpoint": "adverse events incidence", "result": "57.1%"}
{"SMILES": "COc1cccc(Oc2ccccc2NC(=O)CNC(=O)c2cccc3ccccc23)c1", "system": "esterase-deficient SCID mice, male", "setting": "oral, 15 mg/kg/day, 14 days, toxicity study", "endpoint": "serum chloride", "result": "110 mmol/L and 108 mmol/L"}
{"SMILES": "CO[C@H]1C[C@@H]2CC[C@@H](C)[C@@](O)(O2)C(=O)C(=O)N2CCCC[C@H]2C(=O)O[C@H]([C@H](C)C[C@@H]2CC[C@@H](OC(=O)NCCOCCOCCOCCOCCOCCOCCOCCOCCC(=O)N3CCc4cc(Cn5nc(-c6ccc7oc(N)nc7c6)c6c(N)ncnc65)ccc4C3)[C@H](OC)C2)C[C@@H](O)[C@H](C)/C=C(\\C)[C@@H](O)[C@@H](OC)C(=O)[C@H](C)C[C@H](C)/C=C/C=C/C=C/1C", "system": "patients with advanced solid tumours", "setting": "intravenous, dose not given, any grade", "endpoint": "incidence of Vomiting TEAE", "result": "33.3%"}
{"SMILES": "CCc1ccc(CC/C=C/c2ccc3c(c2)C(=O)CC3)cc1", "system": "Sprague-Dawley rat, female, blood", "setting": "oral, 450 mg/kg/day, 14 days", "endpoint": "hematocrit", "result": "46.3%"}
{"SMILES": "CCN1[C@@H](C(=O)NC23CCC(C(=O)O)(CC2)CC3)[C@H](c2cccc(Cl)c2F)[C@]2(C(=O)Nc3cc(Cl)ccc32)C12CCCCC2", "system": "patients with advanced solid tumours", "setting": "oral, 200 mg", "endpoint": "grade ≥3 vomiting incidence", "result": "0%"}
{"SMILES": "COc1ccc2nc3cc(Cl)ccc3c(Nc3cc(CN4CCCC4)c(O)c(CN4CCCC4)c3)c2n1", "system": "mouse, blood", "setting": "intraperitoneal, 14 mg/kg", "endpoint": "white blood cell count", "result": "9.58 10⁹/L"}
{"note": "A few entries again:"}
{"SMILES": "CCN1[C@@H](C(=O)NC23CCC(C(=O)O)(CC2)CC3)[C@H](c2cccc(Cl)c2F)[C@]2(C(=O)Nc3cc(Cl)ccc32)C12CCCCC2", "system": "patients with advanced solid tumours", "setting": "oral, 200 mg", "endpoint": "grade ≥3 vomiting incidence", "result": "0%"}
{"SMILES": "COc1ccc2nc3cc(Cl)ccc3c(Nc3cc(CN4CCCC4)c(O)c(CN4CCCC4)c3)c2n1", "system": "mouse, blood", "setting": "intraperitoneal, 14 mg/kg", "endpoint": "white blood cell count", "result": "9.58 10⁹/L"}
